Experimental data gathered from unrelated publications.
Each numbered part is a random draw from the data of one study; scales do not carry over between parts. Positions count from the first letter of the parent shown.

Sample 1
Target: ABI1, truncated, D143A, DHFR fusion (Arabidopsis thaliana)
Technique: DHFR PCA, deep sequencing
Matrix: yeast
Setting: methotrexate growth selection, single substitutions
With: (+)-ABA 0.39 µM
Reference: wild-type fitted maximum
Reading: higher = stronger binding
Measurement: relative binding score
Starting sequence: PYL1, truncated, DHFR fusion (Arabidopsis thaliana); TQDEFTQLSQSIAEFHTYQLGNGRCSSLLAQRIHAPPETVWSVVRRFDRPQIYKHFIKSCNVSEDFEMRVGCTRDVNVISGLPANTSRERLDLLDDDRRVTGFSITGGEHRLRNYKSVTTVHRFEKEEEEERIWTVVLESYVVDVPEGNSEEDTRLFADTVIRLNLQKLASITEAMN
Q2P: 62.6%
R132G: 72.5%
V43Q: -9.44%
L169E: -0.967%
T101I: 76.6%
V121N: -7.81%
N165G: 2.52%
D96V: -0.668%
E147Q: 30.1%
E4F: 24.3%
F56V: -3.06%
S9A: 50.4%

Sample 2
Target: TAR DNA-binding protein 43, full length, His tag (TARDBP, Homo sapiens, UniProt Q13148, residues 1-414)
Technique: RNA Bind-n-Seq
Molecule type: RNA
Matrix: in vitro
Tested at: 20 nM
Setting: 6-mer, flanks averaged, single round
With: 150 mM KCl
Reference: input library
Reading: higher = stronger binding
Measurement: 6-mer enrichment (R)
GAGACU: 0.847
CGUAUU: 0.597
AGUCGU: 0.746
GCAAUC: 0.655
GAAGAC: 0.852
CGACUG: 0.896
ACUCAG: 0.666
UGCGGA: 1.47
AAGAGA: 0.919
AUCCUA: 0.55
UAACCG: 0.649
UUUAUU: 0.69

Sample 3
Organism: Saccharomyces cerevisiae
Observed: binding
Technique: yeast competitive growth sequencing
Molecule type: peptide
Strain: cyclin D2-Cln2 fusion strain
Setting: peptide tiling library
Reading: direction not given
Measurement: enrichment score
GTPKRCLDLSNLSSGE: -1.23
GPVKLEFDVSDGAT: -0.755
VKRLNFRSEEME: -1.59
SPPRGRRLFPPGPAGF: -0.652
RQVRRDLFAF: -2.13
PHKTFRKLRLFDTPHT: -2.81
EPRNLLSLFEDTLDPT: -0.417
YLYLLLTQSLWCRV: -1.55
KRCATPVIIDEILPSK: 0.896

Mixed results
PhoQ, residues 284 288 289 292 302 303 WSHMKI  fold induction (PhoP, residues 12 14 15 18 19 LHHSG (Escherichia coli, UniProt P23836); Sort-seq, item: YFP reporter; E. coli; PhoQ-PhoP variant library, with: 10 µM Mg2+; reference: high Mg2+ state, higher = stronger signaling): 4.98
